Published values pooled from the literature.
Lines come from different studies, so protocols differ. ± gives the spread as reported.

CCCC[C@H](NC(=O)CN1CCC(NC(=O)CN2CCN(CC(=O)O)CCN(CC(=O)O)CCN(CC(=O)O)CC2)CC1)C(=O)N[C@H]1CC(=O)NCCCC[C@@H](C(N)=O)NC(=O)[C@H](Cc2c[nH]c3ccccc23)NC(=O)[C@H](CCCNC(=N)N)NC(=O)[C@@H](Cc2ccccc2)NC(=O)[C@H](Cc2c[nH]cn2)NC1=O [gallium-68 labelled]  tissue uptake (C57BL/6J mice male B16-F10 tumour, thyroid; 2 h post injection, unblocked): 4.7 ± 1.1 %ID/g
NC12CNCCNCC(NCc3ccc(CNC(=O)CCCC(=O)NCc4ccc(-c5nncnn5)cc4)cc3)(CNCCNC1)CNCCNC2.[64Cu+2]  tissue uptake (athymic nude mice, SW1222 xenograft, large intestine, with contents; 24 h p.i., huA33-TCO pretargeting, 24 h interval): 0.26 ± 0.06 %ID/g
CCCC[C@@H]1NC(=O)[C@@H](NC(=O)[C@H](CCC(=O)O)NC(=O)CNC(=O)CN2CCN(CC(=O)O)CCN(CC(=O)O)CCN(CC(=O)O)CC2)CCCCNC(=O)C[C@@H](C(N)=O)NC(=O)[C@H](C(C)C)NC(=O)[C@@H]2CCCN2C(=O)[C@H](CCCNC(=N)N)NC(=O)CNC(=O)[C@H](Cc2c[nH]c3ccccc23)NC(=O)[C@H](CCCNC(=N)N)NC(=O)[C@@H](Cc2ccccc2)NC(=O)[C@H](Cc2c[nH]cn2)NC(=O)[C@H](CCC(=O)O)NC1=O [gallium-67 labelled]  tissue uptake (C57 mice, B16/F10 lung metastases, skin; intravenous, 0.037 MBq/mouse, 2 h): 0.57 ± 0.19 %ID/g
CN1C(=O)[C@@H](Cc2ccc(O)c(I)c2)NC(=O)CNC(=O)[C@H](Cc2ccc3ccccc3c2)NC(=O)[C@H](CCCNC(=N)N)NC(=O)[C@H]1CCCNC(=O)c1ccc(CNC(=O)CN2CCN(CC(=O)O)CCN(CC(=O)O)CCN(CC(=O)O)CC2)cc1 [lutetium-177 labelled]  tissue uptake (item: 177Lu radioactivity; female CB-17 SCID mice, Daudi xenograft, blood; intravenous, 0.16 nmol per mouse, 6 h): 0.09 ± 0.01 %ID/g
O=C([O-])CN1CCN(CC(=O)[O-])CCN(CC(=O)[O-])CCN(CC(=O)[O-])CC1.[64Cu+2]  tissue uptake (healthy athymic nude mice, spleen; intravenous, 1 h): 0.34 %ID/g
CCCC[C@H](NC(=O)CNC(=O)CNC(=O)CN1CCN(CC(=O)O)CCN(CC(=O)O)CC1)C(=O)N[C@H]1CC(=O)NCCCC[C@@H](C(N)=O)NC(=O)[C@H](Cc2c[nH]c3ccccc23)NC(=O)[C@H](CCCNC(=N)N)NC(=O)[C@@H](Cc2ccccc2)NC(=O)[C@H](Cc2c[nH]cn2)NC1=O [gallium-67 labelled]  tissue uptake (female C57 mice, B16/F1 melanoma, heart; intravenous, 0.037 MBq, 2 h): 0.45 ± 0.09 %ID/g
O=C([O-])CN1CCN(CC(=O)[O-])CCN(CC(=O)NCCc2ccc3c(c2)C2C=CCC2C(c2cc4c(cc2Br)OCO4)N3)CCN(CC(=O)[O-])CC1.[111In+3] (stereo not shown)  tissue uptake (SPECT/CT imaging; mice with Hec50 tumour xenograft, intestine; 4 h): 83.9 % ID
N=C(N)NCCC[C@@H]1NC(=O)[C@H](CCCCNC(=O)CON=C[C@H](F)[C@@H](O)[C@H](O)[C@H](O)CO)NC(=O)[C@@H](Cc2ccc(O)cc2)NC(=O)[C@H](CC(=O)O)NC(=O)CNC1=O [fluorine-18 labelled]  tissue uptake (nude mice U-87 MG tumour, brain; intravenous, 2 h): 0.13 ± 0.07 %ID/g
CCCC[C@H](NC(=O)CNC(=O)CNC(=O)CN1CCN(CC(=O)O)CCN(CC(=O)O)CCN(CC(=O)O)CC1)C(=O)N[C@H]1CC(=O)NCCCC[C@@H](C(N)=O)NC(=O)[C@H](Cc2c[nH]c3ccccc23)NC(=O)[C@H](CCCNC(=N)N)NC(=O)[C@@H](Cc2ccccc2)NC(=O)[C@H](Cc2c[nH]cn2)NC1=O [gallium-67 labelled]  tissue uptake (female C57 mice, B16/F1 melanoma, tumor; intravenous, 0.037 MBq, 0.5 h): 27 ± 3.82 %ID/g
O=C(NCC1OC2CCC=CCCC2O1)c1ccc([18F])nc1 (stereo not shown)  tissue uptake (ex vivo biodistribution; BALB/c nude mice, female, LS174T xenograft, tumour; intravenous, 7.4 MBq, 60 min, pretargeting, with: CC49-tetrazine conjugate 24 h before): 1.36 ± 0.28 %ID/g
CC(C)[C@H](NC(=O)[C@@H]1CCCN1C(=O)[C@H](CCCNC(=N)N)NC(=O)[C@H](CS)NC(=O)[C@H](Cc1c[nH]c2ccccc12)NC(=O)[C@H](CCCNC(=N)N)NC(=O)[C@@H](Cc1ccccc1)NC(=O)[C@H](Cc1c[nH]cn1)NC(=O)[C@H](CCC(=O)O)NC(=O)[C@H](CS)NC(=O)[C@H](CS)NC(=O)[C@@H]1CC(=O)N[C@@H](CCCNC(=N)N)C(=O)NCC(=O)N[C@@H](CC(=O)O)C(=O)N[C@H](Cc2ccc(O)cc2)C(=O)N1)C(N)=O [technetium-99m labelled]  tissue uptake (C57 mice B16/F1 melanoma female, intestines; iv, 0.037 MBq, 0.5 h): 3.8 ± 0.32 %ID
O=C([O-])c1cccc(CN(CCN(Cc2cn(Cc3ccccc3)nn2)Cc2cccc(C(=O)[O-])n2)Cc2cn(Cc3ccccc3)nn2)n1.[64Cu+2]  tissue uptake (healthy athymic nude mice, heart; intravenous, 24 h): 3.44 %ID/g
N=C(N)NCCC[C@H](NC(=O)CON=C[C@H](F)[C@@H](O)[C@H](O)[C@H](O)CO)C(=O)NCC(=O)N[C@@H](CC(=O)O)C(=O)O [fluorine-18 labelled]  tissue uptake (nude mice U-87 MG tumour, heart; intravenous, 0.5 h): 3.56 ± 1.11 %ID/g

A few entries again:
NC12CNCCNCC(NCc3ccc(CNC(=O)CCCC(=O)NCc4ccc(-c5nncnn5)cc4)cc3)(CNCCNC1)CNCCNC2.[64Cu+2]  tissue uptake (athymic nude mice, SW1222 xenograft, large intestine, with contents; 24 h p.i., huA33-TCO pretargeting, 24 h interval): 0.26 ± 0.06 %ID/g
O=C([O-])CN1CCN(CC(=O)[O-])CCN(CC(=O)NCCc2ccc3c(c2)C2C=CCC2C(c2cc4c(cc2Br)OCO4)N3)CCN(CC(=O)[O-])CC1.[111In+3] (stereo not shown)  tissue uptake (SPECT/CT imaging; mice with Hec50 tumour xenograft, intestine; 4 h): 83.9 % ID
